Measurements of several laboratories.
A part holds a random share of what one study measured. Positions count from the first letter of the parent shown.

Block 1
Target: Eukaryotic initiation factor 4A-I (EIF4A1, Homo sapiens, UniProt P60842, residues 1-406, full length assumed)
UniProt P60842, sequence (whole entry, looked up): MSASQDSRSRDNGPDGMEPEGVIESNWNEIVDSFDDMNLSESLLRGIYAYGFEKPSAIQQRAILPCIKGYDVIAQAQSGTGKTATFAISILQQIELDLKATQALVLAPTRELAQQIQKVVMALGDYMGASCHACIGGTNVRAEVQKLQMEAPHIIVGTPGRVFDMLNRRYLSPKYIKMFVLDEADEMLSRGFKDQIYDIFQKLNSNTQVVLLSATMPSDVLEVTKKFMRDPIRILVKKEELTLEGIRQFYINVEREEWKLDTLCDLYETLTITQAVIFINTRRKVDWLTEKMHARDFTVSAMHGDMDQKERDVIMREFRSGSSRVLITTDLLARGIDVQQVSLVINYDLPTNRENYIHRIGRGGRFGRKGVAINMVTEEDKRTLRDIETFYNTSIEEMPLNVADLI
Technique: RNA Bind-n-Seq
Form: RNA
Sample: in vitro
Tested at: 15 pmol
Notes: 4-mer, random 30-nt RNA, single round
Together with: DMSO vehicle, 2 mM AMP-PNP
Relative to: input library
Reading: higher = stronger binding
Strand	4-mer enrichment [fold]
AACG	1.3
AAUC	0.911
GACU	1.05
GCUA	0.679
GUCU	0.944
GGAC	1.08
CUGC	1.58
UGUG	0.763

Block 2
Target: ABI1, truncated, D143A, DHFR fusion (Arabidopsis thaliana)
Technique: DHFR PCA, deep sequencing
Sample: yeast
Notes: methotrexate growth selection, single substitutions
Together with: (+)-ABA 0 µM
Relative to: wild-type fitted maximum
Reading: higher = stronger binding
Parent: PYL1, truncated, DHFR fusion (Arabidopsis thaliana); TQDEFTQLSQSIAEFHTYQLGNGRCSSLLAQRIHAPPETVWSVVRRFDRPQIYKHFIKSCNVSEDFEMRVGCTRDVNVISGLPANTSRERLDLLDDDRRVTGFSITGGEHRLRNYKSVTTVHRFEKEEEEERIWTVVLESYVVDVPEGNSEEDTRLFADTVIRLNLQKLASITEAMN; partner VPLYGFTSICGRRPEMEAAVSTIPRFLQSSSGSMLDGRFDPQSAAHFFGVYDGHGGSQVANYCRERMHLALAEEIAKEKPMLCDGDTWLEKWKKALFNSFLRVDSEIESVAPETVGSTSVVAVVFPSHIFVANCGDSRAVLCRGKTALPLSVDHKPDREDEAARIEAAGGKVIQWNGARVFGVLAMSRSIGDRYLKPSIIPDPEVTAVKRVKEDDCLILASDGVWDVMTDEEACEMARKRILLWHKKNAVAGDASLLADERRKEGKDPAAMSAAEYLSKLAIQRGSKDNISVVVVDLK
Change	relative binding score
E152G	0.999%
V142A	15.4%
A30F	14.8%
T120G	-9.49%
S140A	7.22%
D3C	13%
P50V	18.3%
R163E	6.21%

Block 3
Target: Histone acetyltransferase KAT6A, winged helix 1, GST fusion (KAT6A, Homo sapiens, UniProt Q92794, residues 1-85)
Technique: protein binding microarray
Form: double-stranded DNA, one strand shown
Sample: in vitro
Tested at: not given
Notes: 8-mer, flanks averaged, mean of 2 arrays, mostly near background
Relative to: not given
Reading: higher = stronger binding
Target sequence (chain): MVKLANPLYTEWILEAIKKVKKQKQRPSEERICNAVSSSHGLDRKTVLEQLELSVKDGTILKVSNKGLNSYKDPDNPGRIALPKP
Strand	E-score
ACTACCTA	0.0455
ATCAACGG	0.0355
CAGAACTG	-0.104
GCACACCA	-0.103
AATTAAGT	-0.109
ATTGTCCC	0.0414
AAAACGTT	-0.00935
TACTTACA	-0.0818

Single results of other studies
Compound	sample	measurement	value
CCC[C@@H]1NC(=O)CSC[C@@H](C(=O)OCC)N(C)C(=O)[C@H](CC(C)C)NC(=O)[C@@H](C)N(C)C(=O)[C@H](CC(C)C)NC(=O)[C@H](C)N(C)C(=O)[C@@H]2CCCN2C(=O)[C@H](CC(C)C)NC(=O)CN(C)C1=O	hydrocarbon/water	logD	0.0216
